Published values gathered from unrelated publications.
Parts stem from different laboratories: compare values within a part only. ± gives the spread as reported. ≈ marks a conversion by molar mass, not a printed value.
Chain of UniProt Q9VK33 (whole entry, looked up): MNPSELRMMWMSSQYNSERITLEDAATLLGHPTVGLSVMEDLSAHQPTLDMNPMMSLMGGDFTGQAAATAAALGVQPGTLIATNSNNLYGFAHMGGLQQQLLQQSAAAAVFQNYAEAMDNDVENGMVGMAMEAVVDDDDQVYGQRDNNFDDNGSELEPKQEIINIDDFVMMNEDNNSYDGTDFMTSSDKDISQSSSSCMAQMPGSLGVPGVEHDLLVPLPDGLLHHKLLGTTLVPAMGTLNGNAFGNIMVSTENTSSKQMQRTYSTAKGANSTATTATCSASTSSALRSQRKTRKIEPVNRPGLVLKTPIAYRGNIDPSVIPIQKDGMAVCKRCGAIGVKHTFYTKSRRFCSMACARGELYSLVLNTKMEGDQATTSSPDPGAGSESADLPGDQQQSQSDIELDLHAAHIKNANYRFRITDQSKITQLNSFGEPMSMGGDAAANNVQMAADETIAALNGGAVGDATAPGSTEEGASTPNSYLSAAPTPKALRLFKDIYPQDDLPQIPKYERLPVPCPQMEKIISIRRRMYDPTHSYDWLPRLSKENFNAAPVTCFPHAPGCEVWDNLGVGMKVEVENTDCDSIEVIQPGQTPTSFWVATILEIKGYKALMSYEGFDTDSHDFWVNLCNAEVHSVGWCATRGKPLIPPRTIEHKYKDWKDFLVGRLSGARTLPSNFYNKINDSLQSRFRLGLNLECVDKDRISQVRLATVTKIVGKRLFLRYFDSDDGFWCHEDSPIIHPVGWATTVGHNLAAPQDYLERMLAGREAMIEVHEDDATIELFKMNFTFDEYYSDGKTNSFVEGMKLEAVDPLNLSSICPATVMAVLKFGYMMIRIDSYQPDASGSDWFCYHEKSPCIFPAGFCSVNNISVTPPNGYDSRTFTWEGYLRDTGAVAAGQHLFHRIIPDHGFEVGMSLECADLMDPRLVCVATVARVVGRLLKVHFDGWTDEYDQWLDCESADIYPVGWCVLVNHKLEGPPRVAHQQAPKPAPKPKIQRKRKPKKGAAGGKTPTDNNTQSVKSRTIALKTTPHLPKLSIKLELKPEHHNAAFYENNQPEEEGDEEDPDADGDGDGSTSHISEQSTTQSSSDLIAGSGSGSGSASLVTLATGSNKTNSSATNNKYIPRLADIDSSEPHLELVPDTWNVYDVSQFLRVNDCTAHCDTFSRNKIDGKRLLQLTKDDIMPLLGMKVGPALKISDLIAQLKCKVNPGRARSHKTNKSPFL

Block 1
Compound: CC[C@H](C)[C@H](NC(=O)[C@H](CC(C)C)NC(=O)[C@H](CCCCN)NC(=O)[C@@H](NC(=O)[C@H](C)NC(=O)[C@H](CCC(=O)O)NC(=O)[C@H](Cc1c[nH]cn1)NC(=O)[C@@H](NC(=O)[C@H](CCCCN)NC(=O)[C@H](CCC(N)=O)NC(=O)[C@H](Cc1ccccc1)NC(=O)[C@@H](NC(=O)[C@H](CCCCN)NC(=O)[C@H](CCCCN)NC(=O)[C@H](CC(C)C)NC(=O)[C@H](C)NC(=O)[C@H](CC(N)=O)NC(=O)[C@@H](N)CC(C)C)C(C)C)[C@@H](C)CC)[C@@H](C)CC)C(N)=O
Time: 18 h
Temperature: 37 °C
Staphylococcus aureus; MW2, resistant — MIC: 4 µM (≈ 8.42 µg/mL).
The MIC was 4 µM (≈ 8.42 µg/mL) (Bacillus subtilis; KCTC 1998).
The MIC was 2 µM (≈ 4.21 µg/mL) (Escherichia coli; CCARM 1229, resistant).

Single results of other studies
TTR: Transthyretin (TTR, Homo sapiens, UniProt P02766)
For Cc1n[nH]c(C)c1CCCOc1cc(OCCCc2cn(CCOCCOCCOCCC(=O)N[C@@H](CCCNC(=N)N)C(=O)NCC(=O)N[C@@H](CCCCN)C(=O)Nc3ccc4c(C)cc(=O)oc4c3)nn2)cc(C(=O)O)c1, the Kd was 0.172 µM (TTR; binding).
With NC1CC1c1ccc(NC(=O)c2ccc3ccccc3c2)cc1 (centres unmarked) the IC50 was 9.4 ± 0.9 µM (NB-4 APL cells).
CC(C)C[C@H](NC(=O)[C@@H](CCCCNC(=O)CCOCCOCCOCCN=[N+]=[N-])NC(=O)[C@H](Cc1ccc(O)cc1)NC(=O)[C@H](CO)NC(=O)[C@H](Cc1c[nH]c2ccccc12)NC(=O)[C@H](Cc1c[nH]cn1)NC(=O)[C@@H]1CCC(=O)N1)C(=O)N[C@@H](CCCNC(=N)N)C(=O)N1CCC[C@H]1C(=O)NCC(N)=O has a Kd of greater than 10 µM (TTR; binding).
With CC(C)[C@H](NC(=O)CNC(=O)CNC(=O)[C@@H](NC(=O)[C@H](C)NC(=O)[C@@H]1CCCN1C(=O)[C@H](C)NC(=O)[C@@H](N)CO)[C@@H](C)O)C(=O)N[C@@H](CCCC[N+](C)(C)C)C(=O)N[C@@H](CCCCN)C(=O)N1CCC[C@H]1C(=O)N[C@@H](Cc1c[nH]cn1)C(=O)N[C@@H](CCCNC(=N)N)C(=O)N[C@@H](Cc1ccc(O)cc1)C(=O)N[C@@H](CCCNC(=N)N)C(=O)N1CCC[C@H]1C(=O)NCC(N)=O the Kd was greater than 100 µM (Polycomb protein Sfmbt (Sfmbt, Drosophila melanogaster, UniProt Q9VK33); binding, fluorescence polarization; pH 8.0, Drosophila melanogaster protein, added: fluorescein-labelled peptide 80 nM).
For CC[C@H](C)[C@H](NC(=O)[C@H](C)NC(=O)CNC(=O)[C@H](CCCCN)NC(=O)[C@H](CC(N)=O)NC(=O)[C@H](CO)NC(=O)CNC(=O)[C@@H](NC(=O)[C@H](CC(=O)O)NC(=O)[C@H](C)NC(=O)[C@H](Cc1ccccc1)NC(=O)[C@H](Cc1ccccc1)NC(=O)[C@@H](NC(=O)[C@H](CC(C)C)NC(=O)[C@H](CCCCN)NC(=O)[C@H](CCC(N)=O)NC(=O)[C@H](Cc1c[nH]cn1)NC(=O)[C@H](Cc1c[nH]cn1)NC(=O)[C@@H](NC(=O)[C@H](CCC(=O)O)NC(=O)[C@H](Cc1ccc(O)cc1)NC(=O)CNC(=O)[C@H](CO)NC(=O)[C@H](CC(=O)O)NC(=O)[C@H](Cc1c[nH]cn1)NC(=O)[C@H](CCCNC(=N)N)NC(=O)[C@H](Cc1ccccc1)NC(=O)[C@H](CCC(=O)O)NC(=O)[C@H](C)NC(=O)[C@@H](N)CC(=O)O)C(C)C)C(C)C)C(C)C)C(=O)N[C@H](C(=O)NCC(=O)N[C@@H](CC(C)C)C(=O)N[C@@H](CCSC)C(=O)N[C@H](C(=O)NCC(=O)NCC(=O)N[C@H](C(=O)N[C@H](C(=O)O)C(C)C)C(C)C)C(C)C)[C@@H](C)CC, “first-order rate constant” read 0.08 s⁻¹ (aggregation, Tyr fluorescence anisotropy; 10 µM, pH 7.40).
